Measurements pooled from the literature.
Several values in a cell are separate wells, animals, samples, runs or records.

Cc1cc(C(=O)NC(C)(C)C(=O)O)cc(C)n1: “plasma peak area” 59200 a.u. (LC-MS metabolite profiling; Sprague-Dawley rat, both sexes, plasma; oral, 100 mg/kg of parent drug, 0.5 (unit not given); higher = more metabolite).
O=C(NS(=O)(=O)c1cccs1)c1cc2ccccc2n1Cc1ccc(Br)c2ccccc12 gave a plasma concentration of 3.23 ng/mL (Sprague-Dawley rat, male; intravenous, dose not given, 8 h).
Cc1cc(C(=O)NC(C)(C)CO)cc(C)n1: “plasma peak area” 182000 a.u. (LC-MS metabolite profiling; Sprague-Dawley rat, both sexes, plasma; oral, 100 mg/kg of parent drug, 1 (unit not given); higher = more metabolite).
Cc1noc(C)c1Cn1cc(N2C(=O)CN(Cc3cccc(O[C@@H]4O[C@H](C(=O)O)[C@@H](O)[C@H](O)[C@H]4O)c3)C2=O)cn1 has a plasma concentration of 7870 ng/mL (Sprague-Dawley rat, male; oral, 100 mg/kg of parent drug, 2 h).
The plasma concentration of COc1ccc(C(N)=O)cn1 is reported as 80.4 µM (Han Wistar rats, male, plasma; oral, 30 mg/kg, 1.00 h).
CC(C)(C)C(=O)Nc1ccc2[nH]c(CN3CCC(N(CCCN4CCOCC4)CC4OC(n5cnc6c(N)ncnc65)C(O)C4O)CC3)nc2c1 (centres unmarked) — result for plasma concentration: “not detected” (Sprague-Dawley rats; intraperitoneal, 20 mg/kg, 6 h, LLOQ 10 ng/mL).
Cc1noc(C)c1Cn1cc(N2C(=O)CN(Cc3cccc(OS(=O)(=O)O)c3)C2=O)cn1 has a plasma concentration of 667 ng/mL (Sprague-Dawley rat, male; oral, 30 mg/kg of parent drug, 12 h).
CNc1cc(N)c(C(N)=O)c[n+]1C: “plasma concentration of product” 0.201 µM and 0.264 µM (substrate, measured: methylated product; rats, plasma; oral, 30 mg/kg, 3.00 h).
With CC[C@H](C)[C@H](NC(=O)[C@H](Cc1ccc(O)cc1)NC(=O)[C@@H](NC(=O)[C@H](CCCNC(=N)N)NC(=O)[C@@H](N)CC(=O)O)C(C)C)C(=O)N[C@@H](Cc1c[nH]cn1)C(=O)N1CCC[C@H]1C(=O)O the plasma concentration was 98.1 ng/mL (LC-MS/MS; Sprague-Dawley rat, both sexes, plasma; subcutaneous, 10 mg/kg/day, day 27, 0.5 h, 30 min).
CNc1cc(N)c(C(N)=O)cn1 gave a plasma concentration of 28.4 µM (Han Wistar rats, male, plasma; oral, 30 mg/kg, 1.00 h).
For CCCN(C)c1cc(C(F)(F)F)nc(SCCC(=O)NCc2ccco2)n1, plasma ALT read “no effect” (Wistar rat, plasma; intraperitoneal, 25 mg/kg, 2 h post-dose; baseline: vehicle control).

Some of these lines once more:
CNc1cc(N)c(C(N)=O)c[n+]1C: “plasma concentration of product” 0.201 µM and 0.264 µM (substrate, measured: methylated product; rats, plasma; oral, 30 mg/kg, 3.00 h).
